Assay results collected from several papers.
A part holds a random share of what one study measured. Changes are numbered by the printed parent chain.

Series 1 — technique: protein binding microarray; form: double-stranded DNA, one strand shown; medium: in vitro; tested at: not given; baseline: not given; reading: higher = stronger binding
Target: Histone acetyltransferase KAT6A, winged helix 1, GST fusion (KAT6A, Homo sapiens, UniProt Q92794, residues 1-85)
Notes: 8-mer, flanks averaged, mean of 2 arrays, mostly near background
Target sequence (chain): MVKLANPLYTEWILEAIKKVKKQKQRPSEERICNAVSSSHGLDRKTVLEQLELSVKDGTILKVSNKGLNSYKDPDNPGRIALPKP
Sequence	E-score
AAAATAGC	-0.09
AGATGACG	0.0273
GCCAAAGA	-0.139
CGCTTGAC	0.231
ACGACTGC	-0.0158
ATCGTCTG	0.0253
GAACCCTA	-0.0897
CCCGCTTC	0.19
CCTGCGTC	0.021
CAAACCAG	-0.244
ATCGCGCA	0.26
AAAGATCT	-0.116
TCCGGAAA	0.0979
AGCATCGA	-0.242
TCTCAACA	-0.122
GTCGGCCA	0.125
TCCGCGAA	0.218
CGAGTGTC	-0.0217

Series 2 — technique: protein-binding microarray; form: double-stranded DNA, one strand shown; medium: in vitro; tested at: not given; reading: higher = stronger binding
Target: Myc proto-oncogene protein, bHLH-zipper, MAX partner unstated (MYC, Homo sapiens, UniProt P01106, residues 368-449)
UniProt P01106, sequence (368-449, looked up): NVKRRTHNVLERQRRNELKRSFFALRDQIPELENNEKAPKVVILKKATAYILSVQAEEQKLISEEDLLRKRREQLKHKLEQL
Notes: k-mer, scored over probes, only values ≥0.25
Sequence	E-score
AAGCGTGA	0.282
ACACGGGA	0.271
ATCCGCAT	0.262
CTGCGTGA	0.275
CATGCGGC	0.452
CGTGATAA	0.287
CGTGGTCC	0.399
CATCACAC	0.258
CATGCGTA	0.443
CCATATGG	0.411
ATGCAGCG	0.268
CATGGAAG	0.273
AACCTCGT	0.277
AACCATGT	0.303
CTCGTGGA	0.438
CGCCACCC	0.378
CAAGCGTG	0.402
AAACATGT	0.321
AGCCACGA	0.391
CAAACACG	0.344
GTCCCCAC	0.254
GAACGTGC	0.334
ACGCCATG	0.4
CATGGAGG	0.32
CACGTGGC	0.495

Series 3 — technique: protein-binding microarray; form: double-stranded DNA, one strand shown; medium: in vitro; tested at: 2540 nM top; notes: 60-bp whole probe; added: salmon DNA 0.4 mg/ml; baseline: random background probes; reading: higher = stronger binding; constant ends, left off below: GCCTAGCAC … GTCTTGATTCGCTTGACGCTGCTG
Target: Interferon regulatory factor 3, full length, phosphomimetic (IRF3, Homo sapiens, UniProt Q14653, residues 1-427, S386D/S396D/S398D/S402D/T404D/S405D)
UniProt Q14653, sequence (whole entry, unmodified, looked up): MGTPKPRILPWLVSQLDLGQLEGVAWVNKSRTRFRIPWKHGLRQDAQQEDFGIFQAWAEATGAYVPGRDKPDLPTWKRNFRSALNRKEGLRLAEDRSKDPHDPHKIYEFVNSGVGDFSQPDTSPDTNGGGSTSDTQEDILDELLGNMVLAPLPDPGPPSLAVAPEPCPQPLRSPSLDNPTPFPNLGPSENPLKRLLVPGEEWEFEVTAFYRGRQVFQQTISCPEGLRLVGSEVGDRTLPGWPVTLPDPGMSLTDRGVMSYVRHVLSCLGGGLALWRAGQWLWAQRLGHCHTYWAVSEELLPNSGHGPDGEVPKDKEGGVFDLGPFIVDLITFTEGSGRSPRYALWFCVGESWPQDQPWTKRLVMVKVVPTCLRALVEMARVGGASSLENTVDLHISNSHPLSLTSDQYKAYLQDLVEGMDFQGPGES
Sequence	fitted relative affinity
GACGGTCTCCTTATGCTGACGTGCTAG	2.05 z-score
GACAGTCTCCTTTTCCTGACGTGCTAG	5.68 z-score
TTATGTTTCGACACTGGGTTAGTGCTA	1.96 z-score
GACGGTAGCGGTTTCGGGACGTGCTAG	3.11 z-score
TCAGTCTTCCCCATCTTACTGTGCTAG	1.43 z-score
TTAGGTTTCCTAGTGCTTTAGTGCTAG	4.94 z-score
TTAGGTATCGACACTGGATTAGTGCTA	0.289 z-score
GACGGTATCGACTATCCGGACGTGCTA	0.977 z-score
AAATATATACAAACTAAGGATGTGCTA	0.602 z-score
CCTAATCTCAGCCTCCGTCAGTGCTAG	0.856 z-score
TTAGATTTCGGGTTTCGTTTAGTGCTA	3.73 z-score
GACTAACTGAGTTTCGAGACGTGCTAG	1.3 z-score
GACGGTTTCCTTCACCTGACGTGCTAG	4.11 z-score
GACGAACTGAGTTTCGTGACGTGCTAG	0.898 z-score
TTAGGTTTCCTACAGCTTTAGTGCTAG	2.51 z-score
TCAGATTTTGCTTTCATACTGTGCTAG	1.45 z-score
TCATCACTCTAATCTCACACTGTGCTA	0.383 z-score
GACTAACTGGGGTTTCGAGACGTGCTA	0.545 z-score
TCAGTTTCCAGTATATTACTGTGCTAG	4.98 z-score
GACGAACTAAGACTGGAGACGTGCTAG	-0.159 z-score
CTGAATGTCCTCCTCTCTCTGTGCTAG	0.544 z-score
GAAGGTTTCCTTTCCCTGACGTGCTAG	10.6 z-score
TTAGAACTGAGTTTCGATTTGTGCTAG	4.44 z-score
GACGGACTGCTACTGTTGACGTGCTAG	-0.55 z-score
GACGGTTTCGCTTTCGGGACGTGCTAG	8.03 z-score

Series 4 — technique: RNA Bind-n-Seq; form: RNA; medium: in vitro; tested at: 365 nM; baseline: no-protein control; reading: higher = stronger binding
Target: RNA binding protein fox-1 homolog 2, RRM domain, GST-SBP tag (RBFOX2, Homo sapiens, UniProt O43251-10, residues 100-194)
Notes: natural RNA segment, single round, ends assumed
Constant ends, left off below: GGGAGUUCUACAGUCCGACGAUC … UGGAAUUCUCGGGUGCCAA
Construct (chain): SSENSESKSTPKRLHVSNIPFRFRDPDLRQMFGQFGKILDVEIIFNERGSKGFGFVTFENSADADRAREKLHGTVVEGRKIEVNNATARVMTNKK
Sequence	RBNS enrichment (R)
GUCCAUCACCAGGCCAGCUUCUCCUCAGCCCUCUGUUCUUGAAGGGGUGUGCUGGGGCAAGCAUCCUGAGACUCCUGUCUCCUGCAGAGGCCCUCCUUCCUGAAGACAGU	0.261
GAAGACAGUCUUCGAUCGGCACAAGAUGCUCAGCUAGAUGGGCUGGUGUGGUUGGGUCAAGGCCCCAACACCAUGGCUGCCAGCUUCCAGGCUGGACAAAGCAGGGGGCU	0.377
AAUGGUAAUACUAAAUUUUUUUGUUAAUUUAUUCUCAAAUGCCACUACUGCUAGGUUGGUCCCCUCCCAACUUGCCCCUAUCCUUUUUUUAUUUUUAAGAAAAAAACUUU	0.815
AAGAACUCUUAACUGGAAGACGUUGUACUGUUGUGUAGAGCCUGAACCCAAACCCUGCGGUACCCACCCCGGUAGUGGCCAGUCAUCUUGUGCUGACAUUAGCAUUCACC	0.403
UGCAGUGUAGAGCUAGAUUAAAAGCAACUCUUUGCCACCUACUCUGCCCUUUUGGCAAAGUUACCUUGAACAAAGAAUCUUAAGGGUUUAUUAAGAACUCUUUAUUUUCU	0.294
GUUCUGCAGUGUAAUGGAGGACGGGCAACGUGCAUGUGCAGGCUCACCACUCCCAGGCCUCUGACAUGAGGGACAUGUGACAGUGUCAUUCAGUAUUAUGUUCAAAAGAC	3.16
UAUAAUGGAUCAUGCAUAAUUUCUCAGGAGAAUAAAAUGAGAAUUCAUAUAUACGUUCAUCUUUCAAGUCAGAGCAAUGAGUUGGGAAAAGAGGUGGCAUUUCUGAUCGG	0.506
UAAAUAUUAUAUAAAUAUUGUAUAAAACAUUAAAAGUUAACUAUGUAAGAUAUUAUUUCUGAAACAGUUUUAGUUAUAUCCACUAUGAUUAUAAACUGUGUCUCGACCUG	0.441
AUAAUUCUAAAUCCCUCGAUAUUUUUAAAGAUCUGUAAGUAACUUCACAUUAAAAAAUGAAAUAUUUUUUAAUUUAAAGCUUACUCUGUCCAUUUAUCCACAGGAAAGUG	0.784
UAGCUUAUAGCAGACCUUGAGCCUCCUUGGUUACAGCAGGUUGUGGAUAAGUUACAUCGGGCUUCAUCAUCUAUACCUCCAUUUUUUCCUCCAGUUUUUAAUUUACUUUC	0.691
UUCUCAAAGCCUGUCUUCAAAAAAGCUGAGGCAAAAUGCUAAUAUUAAUUCAGCCUGGCCUCGAAACACUGUCCUGAGCACCCGUCAACUCUGAGAGGAAGUGUGGAGAG	0.499
AAGAAGGCCUGCCAGCGCUUUCUGGACUGAGCUGUGCUGCAGGUUCUACUCUGUUCCUGGCCCUGCCGGCAGCCACUGACAAGAGGCCAGUGUGUCACCAGCCCUCAGCA	0.954

Series 5 — target: ATF5, bZIP domain (human); technique: DHFR protein complementation; medium: yeast; baseline: wild-type JUN-FOS pair; reading: higher = stronger binding
Notes: single substitutions, most at no-binding floor
Parent: JUN, bZIP domain (human); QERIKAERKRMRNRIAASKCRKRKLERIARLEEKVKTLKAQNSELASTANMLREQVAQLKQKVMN; partner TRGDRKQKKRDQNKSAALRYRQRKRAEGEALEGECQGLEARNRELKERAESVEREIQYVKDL
Variant	binding fitness [natural log]
E32D	-1.54
K39N	-1.55
E44M	-1.49
I28Q	-1.35
V35P	-1.51
M51T	-1.24
N42D	-1.61
R53P	-1.46
K36T	-1.54
A40W	-1.44
E44A	-1.49
K36W	-1.43
V35E	-1.27
I28H	-1.28
L38G	-1.47
R53L	-1.54
K39R	-1.49
I28V	-1.51
E33V	-1.42
K34H	-1.53
L52V	-1.51
L45P	-1.54
Q41I	-1.5

Series 6 — technique: DHFR PCA, deep sequencing; medium: yeast; added: (+)-ABA 1.4 µM; baseline: wild-type fitted maximum; reading: higher = stronger binding
Target: ABI1, truncated, D143A, DHFR fusion (Arabidopsis thaliana)
Notes: methotrexate growth selection, single substitutions
Parent: PYL1, truncated, DHFR fusion (Arabidopsis thaliana); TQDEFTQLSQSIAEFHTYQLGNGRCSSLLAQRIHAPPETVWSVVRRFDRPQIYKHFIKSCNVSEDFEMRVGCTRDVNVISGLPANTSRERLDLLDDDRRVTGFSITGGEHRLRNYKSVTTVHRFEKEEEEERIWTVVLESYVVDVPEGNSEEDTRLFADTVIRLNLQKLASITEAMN; partner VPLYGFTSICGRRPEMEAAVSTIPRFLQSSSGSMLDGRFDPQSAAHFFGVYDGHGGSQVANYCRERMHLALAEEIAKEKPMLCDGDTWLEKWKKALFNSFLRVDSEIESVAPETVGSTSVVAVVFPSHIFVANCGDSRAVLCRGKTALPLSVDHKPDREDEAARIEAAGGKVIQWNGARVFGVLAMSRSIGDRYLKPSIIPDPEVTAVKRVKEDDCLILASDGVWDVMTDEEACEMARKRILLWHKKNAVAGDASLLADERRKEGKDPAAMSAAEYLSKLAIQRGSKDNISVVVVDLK
Variant	relative binding score
H110R	8.45%
R88Y	46.8%
Q51D	42%
R98F	4.66%
L164F	40.6%
L29V	63.1%
Q167V	28.6%
S27R	22.4%
D96H	5.79%
Y141F	-3.12%
D153A	-9.87%
T106H	17.2%
E152I	10.5%
V136F	27.4%
D97M	36.4%
T173E	-13.2%
N22M	54.4%
I57Y	-7.04%
A158G	-2.73%
R163M	29.9%

Some of these lines once more (series 3):
Sequence	fitted relative affinity
TTAGGTATCGACACTGGATTAGTGCTA	0.289 z-score
GACGGTATCGACTATCCGGACGTGCTA	0.977 z-score
GAAGGTTTCCTTTCCCTGACGTGCTAG	10.6 z-score
GACTAACTGAGTTTCGAGACGTGCTAG	1.3 z-score
TCAGTTTCCAGTATATTACTGTGCTAG	4.98 z-score
CCTAATCTCAGCCTCCGTCAGTGCTAG	0.856 z-score
CTGAATGTCCTCCTCTCTCTGTGCTAG	0.544 z-score
TTAGATTTCGGGTTTCGTTTAGTGCTA	3.73 z-score
TCATCACTCTAATCTCACACTGTGCTA	0.383 z-score
GACGGTAGCGGTTTCGGGACGTGCTAG	3.11 z-score
GACGGTCTCCTTATGCTGACGTGCTAG	2.05 z-score
TTAGGTTTCCTAGTGCTTTAGTGCTAG	4.94 z-score
TTAGAACTGAGTTTCGATTTGTGCTAG	4.44 z-score
GACGGTTTCCTTCACCTGACGTGCTAG	4.11 z-score
GACGAACTAAGACTGGAGACGTGCTAG	-0.159 z-score
GACGGACTGCTACTGTTGACGTGCTAG	-0.55 z-score
AAATATATACAAACTAAGGATGTGCTA	0.602 z-score
